{"data": "Results gathered from unrelated publications", "note": "A part holds a random share of what one study measured. Positions count from the first letter of the parent shown."}
{"data": "Block 1", "target": "Sal-like protein 4, full length isoform A (SALL4, Homo sapiens, UniProt Q9UJQ4, residues 1-1053)", "method": "universal PBM", "form": "double-stranded DNA, one strand shown", "medium": "in vitro", "concentration": "600 nM", "notes": "8-mer, flanks averaged, mean of replicates", "direction": "higher = stronger binding", "UniProt Q9UJQ4, sequence (whole entry, looked up)": "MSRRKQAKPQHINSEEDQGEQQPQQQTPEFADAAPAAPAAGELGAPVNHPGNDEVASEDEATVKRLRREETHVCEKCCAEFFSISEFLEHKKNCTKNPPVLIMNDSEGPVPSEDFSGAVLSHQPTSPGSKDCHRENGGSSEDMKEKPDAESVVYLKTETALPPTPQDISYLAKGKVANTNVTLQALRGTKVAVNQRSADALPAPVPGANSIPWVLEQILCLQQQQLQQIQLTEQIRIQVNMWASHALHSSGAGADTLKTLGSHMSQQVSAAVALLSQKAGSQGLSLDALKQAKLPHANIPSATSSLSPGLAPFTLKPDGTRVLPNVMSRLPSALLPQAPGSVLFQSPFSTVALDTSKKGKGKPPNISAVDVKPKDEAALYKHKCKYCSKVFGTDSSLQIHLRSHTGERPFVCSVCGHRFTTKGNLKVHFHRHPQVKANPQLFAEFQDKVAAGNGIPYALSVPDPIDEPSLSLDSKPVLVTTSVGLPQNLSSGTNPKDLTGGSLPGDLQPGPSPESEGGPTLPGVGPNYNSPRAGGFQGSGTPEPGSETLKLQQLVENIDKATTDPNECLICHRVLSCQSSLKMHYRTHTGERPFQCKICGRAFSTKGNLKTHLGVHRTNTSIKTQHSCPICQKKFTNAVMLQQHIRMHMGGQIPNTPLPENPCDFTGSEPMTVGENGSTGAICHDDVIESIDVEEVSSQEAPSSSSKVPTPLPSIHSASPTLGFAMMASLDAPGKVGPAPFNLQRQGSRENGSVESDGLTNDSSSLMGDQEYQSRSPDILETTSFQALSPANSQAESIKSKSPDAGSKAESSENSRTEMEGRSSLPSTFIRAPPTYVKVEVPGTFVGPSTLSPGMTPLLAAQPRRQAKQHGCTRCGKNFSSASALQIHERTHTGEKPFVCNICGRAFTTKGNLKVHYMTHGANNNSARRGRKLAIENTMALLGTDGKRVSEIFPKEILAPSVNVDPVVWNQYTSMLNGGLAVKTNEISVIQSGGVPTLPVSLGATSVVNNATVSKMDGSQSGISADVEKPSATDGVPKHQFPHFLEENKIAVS"}
{"Sequence": "GAGCATCA", "E-score": -0.00789}
{"Sequence": "TAAACACA", "E-score": 0.159}
{"Sequence": "ATGATTGA", "E-score": 0.225}
{"Sequence": "AAAATGAA", "E-score": 0.361}
{"Sequence": "CGTAGGCC", "E-score": -0.0765}
{"Sequence": "AGCACATA", "E-score": 0.106}
{"Sequence": "AAGGGTCG", "E-score": -0.171}
{"data": "Block 2", "target": "CCNE1, cyclin fold, Cln2 fusion (human)", "method": "yeast growth competition, sequencing", "medium": "yeast", "notes": "weak parent motif", "baseline": "not given", "direction": "higher = stronger binding", "starting sequence": "ORC1 docking peptide (human); PRARKRLELGNLG"}
{"Change": "PRARKRLVLGNLG [E8V]", "normalised enrichment score": 1.22}
{"Change": "PRARKRLELGNLP [G13P]", "normalised enrichment score": -0.145}
{"Change": "FRARKRLELGNLG [P1F]", "normalised enrichment score": 0.0588}
{"Change": "PRVRKRLELGNLG [A3V]", "normalised enrichment score": -0.0777}
{"Change": "GRARKRLELGNLG [P1G]", "normalised enrichment score": -0.416}
{"Change": "PRARKRLELGNMG [L12M]", "normalised enrichment score": 0.6}
{"data": "Block 3", "target": "Histone acetyltransferase KAT6A, winged helix 2, GST fusion (KAT6A, Homo sapiens, UniProt Q92794, residues 85-181)", "method": "protein binding microarray", "form": "double-stranded DNA, one strand shown", "medium": "in vitro", "concentration": "not given", "notes": "8-mer, flanks averaged, mean of 2 arrays, mostly near background", "baseline": "not given", "direction": "higher = stronger binding", "Target sequence (chain)": "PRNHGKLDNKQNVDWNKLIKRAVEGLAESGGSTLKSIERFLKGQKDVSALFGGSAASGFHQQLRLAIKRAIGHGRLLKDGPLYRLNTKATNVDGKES"}
{"Sequence": "ACGAAGAC", "E-score": -0.0151}
{"Sequence": "AAACTCCG", "E-score": 0.123}
{"Sequence": "ACCGTCCT", "E-score": -0.0682}
{"Sequence": "GAAGATGC", "E-score": -0.0382}
{"Sequence": "AGGGAAAC", "E-score": 0.00323}
{"Sequence": "GTTGTACA", "E-score": 0.14}
{"Sequence": "ACATAACT", "E-score": -0.246}
{"Sequence": "ACTCAGAC", "E-score": 0.0336}
{"data": "Further values, each from its own experiment"}
{"Substance": "PhoQ, residues 284 288 289 292 302 303 ASVMEA", "target": "PhoP, residues 12 14 15 18 19 AGCRL (Escherichia coli, UniProt P23836)", "assay": "Sort-seq, item: YFP reporter", "system": "E. coli", "conditions": "PhoQ-PhoP variant library, with: 10 µM Mg2+", "scale": "baseline: high Mg2+ state, higher = stronger signaling", "quantity": "fold induction", "value": 11.2}
{"note": "For quick reference, copied from above (block 1):"}
{"Sequence": "AAAATGAA", "E-score": 0.361}
{"Sequence": "CGTAGGCC", "E-score": -0.0765}
